# Measurements from different studies.
# Lines come from different studies, so protocols differ.
# Organism: Candida albicans
Structure (SMILES),assay,system,conditions,how to read,endpoint,value
CC(=O)OC1C(C)C(OC2CC3OCOC3C(C)O2)C=COC2(C)Oc3c(C)c(O)c4c(c3C2=O)C(=O)C=C(NC(=O)C(C)=CC=CC(C(C)OC(=O)C(C)(C)CC(=O)O)C(O)C(C)C(O)C1C)C4=O (stereo not drawn),,ATCC 90028,concentration not given,,antifungal activity,inactive
CC(=NNC(=N)N)c1nnn(-c2ccc(C#CC3(O)CCCCC3)cc2)c1C,,"WI-38, SC5314 wild type",,reference: WI-38 IC50 over MIC,selectivity index,17.6
O=[N+]([O-])[O-].S=c1[nH]cnc2[nH]cnc12.[Ag+].c1ccc(P(c2ccccc2)c2ccccc2)cc1.c1ccc(P(c2ccccc2)c2ccccc2)cc1,,"MTCC 227, DMSO","0.1 mL of 50 mg/mL in 8 mm well, 18 to 24 h",,inhibition zone diameter,18 mm
CC[C@H](C)[C@H](NC(=O)[C@H](CCC(N)=O)NC(=O)[C@@H]1CCCN1C(=O)[C@@H](NC(=O)[C@@H](NC(=O)[C@H](Cc1ccc(O)cc1)NC(=O)[C@H](C)NC(=O)[C@H](C)NC(=O)[C@H](CC(C)C)NC(=O)[C@H](CCCCN)NC(=O)[C@H](C)NC(=O)[C@H](CC(C)C)NC(=O)[C@H](CC(C)C)NC(=O)CNC(=O)[C@@H](NC(=O)[C@@H](N)Cc1ccccc1)C(C)C)C(C)C)[C@@H](C)CC)C(=O)N[C@H](C(=O)N[C@@H](CCCCN)C(=O)N[C@@H](CCCNC(=N)N)C(=O)N[C@@H](Cc1ccccc1)C(=O)N[C@@H](CCC(N)=O)C(=O)N[C@@H](CCCCN)C(=O)N[C@@H](CCCCN)C(=O)N[C@@H](CCCCN)C(N)=O)C(C)C,ATP luminescence,FH2173,48 h,,MIC,12.5 to 25 µM
CC[C@@H](C)[C@@H](NC(=O)[C@@H](C)NC(=O)[C@@H](CCCCN)NC(=O)[C@@H](CC(C)C)NC(=O)[C@@H](C)NC(=O)[C@H](NC(=O)[C@@H](Cc1c[nH]cn1)NC(=O)[C@@H](CC(C)C)NC(=O)[C@H](NC(=O)[C@H](NC(=O)[C@@H](CCCCN)NC(=O)[C@@H](CCCCN)NC(=O)[C@@H](C)NC(=O)[C@@H](CO)NC(=O)[C@@H](CCCCN)NC(=O)[C@@H](Cc1ccccc1)NC(=O)[C@H](NC(=O)[C@@H](CCCCN)NC(=O)[C@@H](CC(C)C)NC(=O)[C@@H](Cc1ccccc1)NC(=O)[C@@H](CO)NC(=O)[C@@H](CCCCN)NC(=O)[C@@H](Cc1c[nH]c2ccccc12)NC(=O)[C@@H](CCCCN)NC(C)=O)[C@H](C)O)[C@H](C)O)C(C)C)[C@H](C)O)C(=O)N[C@H](CO)C(=O)N[C@H](CO)C(N)=O,,ATCC 24433,"48 h, 30 °C",,MIC50,50 µg/mL
CN1CC(=O)N=C1N.C[C@H](CCC(=O)O)[C@H]1CC[C@H]2[C@@H]3CC[C@@H]4C[C@H](O)CC[C@]4(C)[C@H]3C[C@H](O)[C@]12C,,TISTR 5554,"1 mg per disc, 18 to 24 h, 37 °C, 6 mm disc",,inhibition zone,inactive
COc1ccc(N2C(=O)C=CC2=O)cc1,"qRT-PCR, measured: ALS3",,"1 µg/mL, 12 h",,mRNA level,decreased
CC(CCC(=O)[O-])C1CCC2C3CCC4CC(O)CCC4(C)C3CCC12C.C[N+](C)(C)CC(O)CC(=O)O (stereo not drawn),,TISTR 5554,"1 mg per disc, 18 to 24 h, 37 °C, 6 mm disc",,inhibition zone,inactive
CC(C)[C@@H](CC(=O)N[C@@H](CCCCN)CC(N)=O)NC(=O)[C@H]1CCCC[C@@H]1NC(=O)C[C@H](CCCCN)NC(=O)C[C@@H](NC(=O)[C@H]1CCCC[C@@H]1NC(=O)C[C@H](CCCCN)NC(=O)C[C@@H](NC(=O)[C@H]1CCCC[C@@H]1Nc1ccc([N+](=O)[O-])c2nonc12)C(C)C)C(C)C,,SC5314,,reference: NBD-labelled over unlabelled peptide,MIC ratio,≤ 2

# Some of these lines once more:
Structure (SMILES),assay,system,conditions,how to read,endpoint,value
CC(=O)OC1C(C)C(OC2CC3OCOC3C(C)O2)C=COC2(C)Oc3c(C)c(O)c4c(c3C2=O)C(=O)C=C(NC(=O)C(C)=CC=CC(C(C)OC(=O)C(C)(C)CC(=O)O)C(O)C(C)C(O)C1C)C4=O (stereo not drawn),,ATCC 90028,concentration not given,,antifungal activity,inactive
